# Experimental data of several laboratories.
# Lines come from different studies, so protocols differ. ± gives the spread as reported.
# NFE2L2 Neh1 domain: Nuclear factor erythroid 2-related factor 2, Neh1 domain (NFE2L2, Homo sapiens, UniProt Q16236)
# UniProt Q16236, sequence (whole entry, unmodified, looked up): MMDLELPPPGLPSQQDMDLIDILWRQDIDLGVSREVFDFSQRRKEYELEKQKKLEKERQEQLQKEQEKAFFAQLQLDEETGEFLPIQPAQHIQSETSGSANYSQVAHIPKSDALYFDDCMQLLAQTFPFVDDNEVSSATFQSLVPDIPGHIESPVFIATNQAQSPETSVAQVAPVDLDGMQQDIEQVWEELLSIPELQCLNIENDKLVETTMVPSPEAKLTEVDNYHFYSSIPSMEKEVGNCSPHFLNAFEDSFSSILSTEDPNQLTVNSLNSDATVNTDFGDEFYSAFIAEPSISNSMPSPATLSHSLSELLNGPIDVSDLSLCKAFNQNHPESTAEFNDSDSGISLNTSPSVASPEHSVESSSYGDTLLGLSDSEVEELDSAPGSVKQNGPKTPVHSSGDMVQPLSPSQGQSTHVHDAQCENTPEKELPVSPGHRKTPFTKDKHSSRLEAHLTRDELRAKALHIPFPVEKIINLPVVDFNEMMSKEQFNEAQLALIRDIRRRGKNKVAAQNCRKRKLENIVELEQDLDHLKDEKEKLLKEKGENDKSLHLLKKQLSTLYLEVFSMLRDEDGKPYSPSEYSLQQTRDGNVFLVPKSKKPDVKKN
# PTH1R: Parathyroid hormone/parathyroid hormone-related peptide receptor (PTH1R, Homo sapiens, UniProt Q03431)
# UniProt Q03431, sequence (whole entry, looked up): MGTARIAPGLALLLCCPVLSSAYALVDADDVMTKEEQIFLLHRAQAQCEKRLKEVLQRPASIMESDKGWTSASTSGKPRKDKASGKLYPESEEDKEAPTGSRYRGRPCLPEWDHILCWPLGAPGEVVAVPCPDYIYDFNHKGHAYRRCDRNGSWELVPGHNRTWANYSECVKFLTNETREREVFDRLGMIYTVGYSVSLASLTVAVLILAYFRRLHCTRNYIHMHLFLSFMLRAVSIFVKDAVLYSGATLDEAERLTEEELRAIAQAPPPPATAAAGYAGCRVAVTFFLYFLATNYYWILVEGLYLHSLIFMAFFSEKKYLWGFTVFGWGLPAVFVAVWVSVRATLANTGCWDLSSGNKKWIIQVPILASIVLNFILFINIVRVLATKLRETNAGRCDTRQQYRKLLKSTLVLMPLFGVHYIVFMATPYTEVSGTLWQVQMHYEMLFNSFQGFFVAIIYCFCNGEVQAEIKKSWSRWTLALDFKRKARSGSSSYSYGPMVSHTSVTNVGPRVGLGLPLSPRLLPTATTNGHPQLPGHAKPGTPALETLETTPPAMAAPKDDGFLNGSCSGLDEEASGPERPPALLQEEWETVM
# MAPK14: Mitogen-activated protein kinase 14 (MAPK14, Homo sapiens, UniProt Q16539)
# UniProt Q16539, sequence (whole entry, looked up): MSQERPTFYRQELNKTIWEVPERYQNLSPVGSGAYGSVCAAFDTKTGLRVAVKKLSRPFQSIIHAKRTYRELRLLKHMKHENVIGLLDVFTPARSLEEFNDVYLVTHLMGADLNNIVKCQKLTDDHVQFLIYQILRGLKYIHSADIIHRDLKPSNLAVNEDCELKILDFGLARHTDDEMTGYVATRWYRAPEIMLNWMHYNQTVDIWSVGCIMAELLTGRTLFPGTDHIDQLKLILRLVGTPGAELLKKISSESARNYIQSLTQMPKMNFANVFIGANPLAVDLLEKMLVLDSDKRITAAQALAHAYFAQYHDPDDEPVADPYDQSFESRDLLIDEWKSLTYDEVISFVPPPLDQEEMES
# UniProt Q9Y6Y9, sequence (whole entry, looked up): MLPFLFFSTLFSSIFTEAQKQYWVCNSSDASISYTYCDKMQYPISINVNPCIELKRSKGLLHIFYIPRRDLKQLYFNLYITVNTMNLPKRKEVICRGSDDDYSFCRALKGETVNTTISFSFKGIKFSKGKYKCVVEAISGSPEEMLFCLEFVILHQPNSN
# UniProt Q97SR4, sequence (whole entry, looked up): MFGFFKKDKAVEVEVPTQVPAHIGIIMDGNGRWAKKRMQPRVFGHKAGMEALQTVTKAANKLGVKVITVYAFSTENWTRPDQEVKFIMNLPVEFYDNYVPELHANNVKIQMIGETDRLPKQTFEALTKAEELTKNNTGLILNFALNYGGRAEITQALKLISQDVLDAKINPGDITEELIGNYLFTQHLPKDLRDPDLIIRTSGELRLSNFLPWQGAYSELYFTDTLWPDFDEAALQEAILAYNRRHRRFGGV
Compound,target,test,test system,conditions,Kd [µM]
CCOc1ccccc1Cc1ccccc1CCc1c(Cl)c(O)cc(O)c1C(=O)OC,"Endoplasmin (HSP90B1, Canis lupus familiaris, UniProt P41148)","ligand displacement, FP",,,6.1
COc1cc2c(cc1-c1c(C)noc1C)ncc1[nH]c(=O)n([C@H](C)c3ccccn3)c12,"Bromodomain factor 3 (Trypanosoma brucei brucei, UniProt Q383S2)",ITC,,15 °C,68 ± 9
O=C(O)COc1ccc(-c2ccccc2)cc1Br,NFE2L2 Neh1 domain,binding,,,1500
CC(C)C[C@H](NC(=O)[C@H](CCCNC(=N)N)NC(=O)[C@H](C)N)C(=O)N[C@@H](Cc1ccc(O)cc1)C(=O)N[C@@H](Cc1c[nH]cn1)C(=O)N[C@@H](COP(=O)(O)O)C(=O)N[C@@H](CC(C)C)C(=O)N[C@@H](CC(C)C)C(=O)N1CCC[C@H]1C(=O)N[C@@H](C)C(=O)N[C@@H](C)C(=O)O,"SFN (Homo sapiens, UniProt P31947)","binding, fluorescence anisotropy",,"pH 7.2, 20 °C, together with: fluorescein-labelled p53 C-terminal peptide 50 nM",0.12 ± 0.01
Cc1cc2c(cc1C)N[C@H](CC(=O)Nc1ccc(N3CCOCC3)cc1)C(=O)N2,"PRKCI (Homo sapiens, UniProt P41743)",cell-free assay,,,1.37
O=C(O)COc1ccc(-c2ccccc2)cc1Cl,NFE2L2 Neh1 domain,"binding, NMR chemical shift perturbation",,,3000 ± 500
O=C(Cc1ccc(F)cc1)NCCOc1ccc(-c2ccc(F)cc2)nn1,"VSIR (Homo sapiens, UniProt Q9H7M9)","binding, SPR",,,0.106
CC[C@H](C)[C@H](NC(=O)[C@H](C)NC(=O)[C@H](CCCNC(=N)N)NC(=O)[C@H](CC(C)C)NC(=O)[C@H](CCC(=O)O)NC(=O)c1ccc2c(c1)C(=O)OC21c2ccc(O)cc2Oc2cc(O)ccc21)C(=O)N[C@H](C(=O)N[C@@H](CCCCN)C(=O)N[C@@H](CCCCN)C(=O)N[C@H](C(=O)N[C@@H](Cc1c[nH]c2ccccc12)C(=O)N[C@@H](CCCCN)C(=O)N[C@@H](CCCNC(=N)N)C(=O)N[C@H](C(=O)N[C@@H](CO)C(=O)N[C@@H](CCSC)C(=O)N[C@@H](CCCCN)C(=O)N[C@@H](CC(C)C)C(=O)N[C@@H](CC(C)C)C(=O)N[C@@H](CC(=O)O)C(=O)N[C@@H](CCC(N)=O)C(=O)N[C@H](C(=O)N[C@H](C(=O)O)C(C)C)C(C)C)[C@@H](C)O)[C@@H](C)CC)[C@@H](C)CC,"Calmodulin-1, C-lobe (Calm1, Rattus norvegicus, UniProt P0DP29)","binding, fluorescence anisotropy",,"pH 7.4, 22 °C, together with: Ca2+ saturated",≤ 0.07
C[n+]1ccc(/C=N/NC(=O)c2cncc(C(=O)N/N=C/c3cc[n+](C)c4ccccc34)n2)c2ccccc21,MYC promoter G-quadruplex DNA,fluorescence titration,,"pH 7.2, 100 mM KCl, together with: labelled DNA 2 nM",0.0085 ± 0.0011
CSCC[C@H](NC(=O)[C@H](CO)NC(=O)[C@H](CC(N)=O)NC(=O)[C@H](CC(C)C)NC(=O)[C@H](Cc1c[nH]cn1)NC(=O)[C@H](CCCCN)NC(=O)CNC(=O)[C@H](CCCCN)NC(=O)[C@H](CC(=O)O)NC(=O)[C@H](Cc1c[nH]cn1)NC(=O)[C@H](CC(C)C)NC(=O)[C@H](CC(C)C)NC(=O)[C@H](CCC(N)=O)NC(=O)[C@H](Cc1c[nH]cn1)NC(=O)[C@H](CCC(=O)O)NC(=O)[C@H](CO)NC(=O)[C@@H](NC(=O)[C@H](C)N)C(C)C)C(=O)N[C@@H](CCC(=O)O)C(=O)N[C@@H](CCCNC(=N)N)C(=O)N[C@H](C(=O)N[C@@H](CCC(=O)O)C(=O)N[C@@H](Cc1c[nH]c2ccccc12)C(=O)N[C@@H](CC(C)C)C(=O)N[C@@H](CCCNC(=N)N)C(=O)N[C@@H](CCCCN)C(=O)N[C@@H](CCCCN)C(=O)N[C@@H](CC(C)C)C(=O)N[C@@H](CCC(N)=O)C(=O)N[C@@H](CC(=O)O)C(=O)N[C@H](C(=O)N[C@@H](Cc1c[nH]cn1)C(=O)N[C@@H](CC(N)=O)C(=O)N[C@@H](Cc1ccccc1)C(=O)N[C@@H](CCCCNC(=O)c1ccc2c(c1)C1(OC2=O)c2ccc(N(C)C)cc2Oc2cc(N(C)C)ccc21)C(N)=O)C(C)C)C(C)C,PTH1R,"binding, NanoBRET",,0.02% sodium azide,0.049 ± 0.02
C/C(=C\COP(=O)(O)OP(=O)(O)O)CC/C=C(\C)COc1ccc2c(C(F)(F)F)cc(=O)oc2c1C,"Isoprenyl transferase (Streptococcus pneumoniae serotype 4, UniProt Q97SR4)",binding,,,0.25
Oc1cc(-c2ccccc2Cl)[nH]n1,MAPK14,"binding, SPR",,,1590
Nc1c2c(nc3ccccc13)CCCC2,"Genome polyprotein, NS3 protease (Hepatitis C virus genotype 1b, UniProt P26663)",binding,,pH 5,11 ± 2
CC1C(O)CC2(CO)CCC3(C)C(=CCC4C(C)(CCC(=O)O)C(C(C)(O)CO)CCC43C)C2C1C (stereo not drawn),"HMGB1 (Homo sapiens, UniProt P09429)","binding, BLI",,,125
C[C@]12CC/C(=N\OCCN3CCCCC3)C=C1CCC1C2CC[C@]2(C)/C(=C/c3ccccn3)CCC12 (stereo partly drawn),"CYP21A2 (Homo sapiens, UniProt P08686)","binding, absorbance",,,3.6
CC(C)C[C@H](NC(=O)[C@H](CCCNC(=N)N)NC(=O)CNC(=O)CNC(=O)[C@H](CO)NC(=O)[C@H](Cc1c[nH]cn1)NC(=O)[C@H](Cc1c[nH]c2ccccc12)NC(=O)[C@H](CO)NC(=O)CNC(=O)[C@H](Cc1c[nH]c2ccccc12)NC(=O)CNC(=O)[C@H](C)NC(=O)[C@@H](NC(=O)[C@H](CCC(N)=O)NC(=O)[C@H](CS)NC(=O)[C@H](CCCNC(=N)N)NC(=O)[C@@H](NC(=O)CN)[C@@H](C)O)C(C)C)C(=O)N[C@@H](CO)C(=O)N[C@@H](CCCNC(=N)N)C(=O)N[C@@H](Cc1ccccc1)C(=O)N1CCC[C@H]1C(=O)N[C@@H](CCCNC(=N)N)C(=O)N[C@@H](Cc1ccccc1)C(=O)N[C@H](C(=O)N[C@@H](CC(N)=O)C(=O)N[C@H](C(=O)O)C(C)C)C(C)C,"Toll-like receptor 4/MD-2 (TLR4/LY96, Homo sapiens, UniProt O00206+Q9Y6Y9)","binding, ELISA",,,0.229
CC[C@H](C)[C@H](NC(=O)[C@H](CC(=O)O)NC(=O)[C@H](Cc1ccccc1)NC(=O)[C@@H](NC(=O)[C@H](C)NC(=O)[C@H](CC(=O)O)NC(=O)[C@H](CC(=O)O)NC(=O)CCNC(=O)CCNC(=O)CCCC[C@@H]1SC[C@@H]2NC(=O)N[C@@H]21)C(C)C)C(=O)N[C@H](C(=O)N[C@H](C(=O)N[C@@H](CC(=O)O)C(=O)N[C@@H](CCC(=O)O)C(=O)N[C@@H](CCC(=O)O)C(=O)N[C@@H](CC(C)C)C(=O)N[C@@H](Cc1c[nH]c2ccccc12)C(N)=O)[C@@H](C)O)[C@@H](C)CC,"Microtubule-associated protein 1 light chain 3 beta (Homo sapiens, UniProt Q9GZQ8)","binding, BLI",,pH 7.4,3.1
CC(=O)N[C@H]1[C@@H](OC(=O)NCCCOCCOCCOCCCNC(=O)O[C@H]2O[C@H](CNC(=O)OCCOCCOCCOCCOCCOCCOC(=O)NC[C@H]3O[C@H](OC(=O)NCCCOCCOCCOCCCNC(=O)O[C@H]4O[C@H](CO)[C@@H](O)[C@H](O)[C@H]4NC(C)=O)[C@H](NC(C)=O)[C@@H](O)[C@@H]3O)[C@@H](O)[C@H](O)[C@H]2NC(C)=O)O[C@H](CO)[C@@H](O)[C@@H]1O,wheat germ agglutinin,competitive ITC,,together with: GlcNAc 10 mM competitor,0.124
CC[C@H](C)[C@H](NC(=O)[C@H](CCC(=O)O)NC(=O)[C@H](CO)NC(=O)[C@@H](NC(=O)[C@@H](N)CO)C(C)C)C(=O)N[C@@H](CCC(N)=O)C(=O)N[C@@H](CC(C)C)C(=O)N[C@@H](CCSC)C(=O)N[C@@H](Cc1c[nH]cn1)C(=O)N[C@@H](CC(N)=O)C(=O)N[C@@H](CC(C)C)C(=O)NCC(=O)N[C@@H](CCCCN)C(=O)N[C@@H](Cc1c[nH]cn1)C(=O)N[C@@H](CC(C)C)C(=O)N[C@@H](CC(N)=O)C(=O)N[C@@H](CO)C(=O)N[C@@H](CCSC)C(=O)N[C@@H](CCC(=O)O)C(=O)N[C@@H](CCCNC(=N)N)C(=O)N[C@H](C(=O)N[C@@H](CCC(=O)O)C(=O)N[C@@H](Cc1c[nH]c2ccccc12)C(=O)N[C@@H](CC(C)C)C(=O)N[C@@H](CCCNC(=N)N)C(=O)N[C@@H](CCCCN)C(=O)N[C@@H](CCCCN)C(=O)N[C@@H](CC(C)C)C(=O)N[C@@H](CCC(N)=O)C(=O)N[C@@H](CC(=O)O)C(=O)N[C@H](C(=O)N[C@@H](Cc1c[nH]cn1)C(=O)N[C@@H](CC(N)=O)C(=O)N[C@@H](Cc1ccccc1)C(=O)N[C@@H](CCCCNC(=O)c1ccc2c(c1)C1(OC2=O)c2ccc(N(C)C)cc2Oc2cc(N(C)C)ccc21)C(N)=O)C(C)C)C(C)C,PTH1R,"binding, NanoBRET kinetic binding",cells,"pH 5.5, together with: TMR-labelled peptide tracer",0.039 ± 0.006
CN(C)CCNC(=O)c1cccc2c(NCCCCc3c(N)nc(N)nc3N)c3ccccc3nc12,RNA with U–U mismatch,"binding, ITC",,"25 °C, 1",25 ± 13
COc1cc(C(O)C(CO)c2ccc(O)c(OC)c2)ccc1O (stereo not drawn),"Alpha-mannosidase (Canavalia ensiformis, UniProt C0HJB3)","binding, surface plasmon resonance",,25 °C,410
O=c1c2ccccc2ncn1-c1ccccc1F,MAPK14,"binding, MST",,,890
C[C@H](NC(=O)[C@H](Cc1ccccc1)NC(=O)c1ccc(C(F)(F)F)cc1)C(=O)N[C@H](C(=O)N[C@@H](CCCC[N+](C)(C)C)C(=O)N[C@@H](CO)C(N)=O)C1CCCC1,"E3 SUMO-protein ligase CBX4 (Homo sapiens, UniProt O00257)","binding, ITC",,pH 8,0.39
CSCC[C@H](NC(=O)[C@H](CO)NC(=O)[C@H](CC(N)=O)NC(=O)[C@H](CC(C)C)NC(=O)[C@H](CO)NC(=O)[C@H](CCCCN)NC(=O)CNC(=O)[C@H](CCCCN)NC(=O)[C@H](CC(=O)O)NC(=O)[C@H](Cc1c[nH]cn1)NC(=O)[C@H](CC(C)C)NC(=O)[C@H](CC(C)C)NC(=O)[C@H](CCC(N)=O)NC(=O)[C@H](Cc1c[nH]cn1)NC(=O)[C@H](CCC(=O)O)NC(=O)[C@H](CO)NC(=O)[C@@H](NC(=O)[C@H](C)N)C(C)C)C(=O)N[C@@H](CCC(=O)O)C(=O)N[C@@H](CCCNC(=N)N)C(=O)N[C@H](C(=O)N[C@@H](CCC(=O)O)C(=O)N[C@@H](Cc1c[nH]c2ccccc12)C(=O)N[C@@H](CC(C)C)C(=O)N[C@@H](CCCNC(=N)N)C(=O)N[C@@H](CCCCN)C(=O)N[C@@H](CCCCN)C(=O)N[C@@H](CC(C)C)C(=O)N[C@@H](CCC(N)=O)C(=O)N[C@@H](CC(=O)O)C(=O)N[C@H](C(=O)N[C@@H](Cc1c[nH]cn1)C(=O)N[C@@H](CC(N)=O)C(=O)N[C@@H](Cc1ccccc1)C(=O)N[C@@H](CCCCNC(=O)c1ccc2c(c1)C1(OC2=O)c2ccc(N(C)C)cc2Oc2cc(N(C)C)ccc21)C(N)=O)C(C)C)C(C)C,PTH1R,"binding, NanoBRET",,0.02% sodium azide,0.063 ± 0.02

# For quick reference, copied from above:
Compound,target,test,test system,conditions,Kd [µM]
C[C@]12CC/C(=N\OCCN3CCCCC3)C=C1CCC1C2CC[C@]2(C)/C(=C/c3ccccn3)CCC12 (stereo partly drawn),"CYP21A2 (Homo sapiens, UniProt P08686)","binding, absorbance",,,3.6
Cc1cc2c(cc1C)N[C@H](CC(=O)Nc1ccc(N3CCOCC3)cc1)C(=O)N2,"PRKCI (Homo sapiens, UniProt P41743)",cell-free assay,,,1.37
COc1cc(C(O)C(CO)c2ccc(O)c(OC)c2)ccc1O (stereo not drawn),"Alpha-mannosidase (Canavalia ensiformis, UniProt C0HJB3)","binding, surface plasmon resonance",,25 °C,410
CC1C(O)CC2(CO)CCC3(C)C(=CCC4C(C)(CCC(=O)O)C(C(C)(O)CO)CCC43C)C2C1C (stereo not drawn),"HMGB1 (Homo sapiens, UniProt P09429)","binding, BLI",,,125
